Measurements from different studies.
Protocols differ between the studies behind these lines. Numbers after ± are the reported error.
BPTF bromodomain: Nucleosome-remodeling factor subunit BPTF, bromodomain (BPTF, Homo sapiens, UniProt Q12830)
LGALS9: Galectin-9 (LGALS9, Homo sapiens, UniProt O00182)
RIPK3: Receptor-interacting serine/threonine-protein kinase 3 (RIPK3, Homo sapiens, UniProt Q9Y572)

SMILES	target	test	setting	Kd [µM]
CC(=O)NCCCC[C@H](NC(=O)CNC(=O)CNC(=O)[C@H](C)NC(=O)[C@@H](N)Cc1ccc(O)cc1)C(=O)N[C@@H](C)C(=O)NCC(=O)N[C@@H](CCCCNC(C)=O)C(=O)N[C@@H](CC(=O)O)C(=O)N[C@@H](CO)C(=O)NCC(=O)N[C@@H](CCCCNC(C)=O)C(=O)N[C@@H](C)C(=O)N[C@@H](CCCCN)C(=O)N[C@@H](C)C(=O)N[C@@H](CCCCN)C(=O)N[C@@H](C)C(=O)N[C@H](C(=O)N[C@@H](CO)C(=O)N[C@@H](CCCNC(=N)N)C(N)=O)C(C)C	BPTF bromodomain	bromodomain binding, PrOF NMR titration	pH 7.4, 5-fluorotryptophan-labelled bromodomain, 40-50 µM	810
CC[C@H](C)[C@H](NC(=O)[C@H](CC(=O)O)NC(=O)[C@H](CC(=O)O)NC(=O)[C@@H]1CCCN1C(=O)[C@H](C)NC(=O)[C@H](CC(C)C)NC(=O)[C@H](CCSC)NC(=O)[C@H](CC(C)C)NC(=O)[C@H](CC(=O)O)NC(=O)[C@H](CC(=O)O)NC(=O)[C@H](CCSC)NC(=O)[C@H](C)NC(=O)[C@H](CCC(N)=O)NC(=O)[C@H](C)NC(=O)[C@@H]1CCCN1C(=O)[C@H](CC(C)C)NC(=O)[C@@H]1CCCN1C(=O)[C@H](C)NC(=O)[C@H](CC(C)C)NC(=O)[C@@H](NC(=O)[C@H](CC(N)=O)NC(=O)[C@H](CC(N)=O)NC(=O)[C@H](CCC(=O)O)NC(=O)[C@@H]1CCCN1C(=O)[C@H](CC(C)C)NC(=O)[C@H](CC(C)C)NC(=O)[C@H](CCCCN)NC(=O)[C@H](Cc1c[nH]c2ccccc12)NC(=O)[C@H](CC(C)C)NC(=O)[C@H](CC(=O)O)NC(=O)[C@H](C)NC(=O)[C@H](Cc1ccccc1)NC(=O)[C@H](C)NC(=O)[C@H](CCC(=O)O)NC(=O)[C@H](CCC(N)=O)NC(=O)[C@H](C)NC(=O)[C@H](CC(C)C)NC(=O)[C@@H]1CCCN1C(=O)[C@@H]1CCCN1C(=O)[C@H](CCC(=O)O)NC(=O)[C@@H](NC(=O)[C@H](CO)NC(=O)[C@@H]1CCCN1C(=O)[C@H](CC(=O)O)NC(=O)[C@H](CO)NC(=O)[C@H](CCC(N)=O)NC(=O)[C@@H]1CCCN1C(=O)[C@H](CCC(=O)O)NC(=O)[C@H](CCC(=O)O)NC(=O)[C@@H](N)CCSC)C(C)C)C(C)C)C(=O)N[C@@H](CCC(=O)O)C(=O)N[C@@H](CCC(N)=O)C(=O)N[C@@H](Cc1c[nH]c2ccccc12)C(=O)N[C@@H](Cc1ccccc1)C(=O)N[C@@H](C)C(=O)N[C@@H](CCC(=O)O)C(=O)N[C@@H](CC(=O)O)C(=O)O	Histone acetyltransferase p300, IBiD domain (EP300, Homo sapiens, UniProt Q09472)	fluorescence anisotropy	IBiD domain, together with: labelled p53 TAD peptide	5.8 ± 0.4
CC[C@H](C)[C@H](NC(=O)[C@H](C)NC(=O)[C@H](CC(=O)O)NC(=O)[C@H](CC(C)C)NC(=O)[C@@H](NC(=O)[C@H](CCCCN)NC(=O)[C@H](CCCCN)NC(=O)[C@@H](NC(=O)[C@H](CCC(=O)O)NC(=O)[C@H](CCC(=O)O)NC(=O)[C@H](CCC(=O)O)NC(=O)[C@H](CO)NC(=O)[C@H](CC(C)C)NC(=O)[C@H](CC(=O)O)NC(=O)[C@H](CC(C)C)NC(=O)CNC(=O)[C@H](CCCNC(=N)N)NC(=O)[C@H](CC(C)C)NC(=O)[C@H](CO)NC(=O)CNC(=O)CNC(=O)CNC(=O)CCCC[C@@H]1SC[C@@H]2NC(=O)N[C@@H]21)C(C)C)[C@@H](C)CC)C(=O)N[C@H](C(=O)N[C@@H](CCCCN)C(=O)N[C@@H](CC(=O)O)C(=O)O)C(C)C	Fab B11 antibody (human)	binding, biolayer interferometry	together with: biotinylated peptide on tips	0.027 ± 0.001
Nc1ccc(/C=C/C(=O)NCC2Cc3cc(-c4ccc(C(=O)N5CCNCC5)cc4)cc(Cl)c3O2)cn1 (stereo not shown)	PAK4 (Homo sapiens, UniProt O96013)	binding, SPR		9.65
COc1cc(-c2nc3ccc(C(=O)NCCCN(C)C)cc3n2C2CCC2)cc(OC)c1OC	BMPR1B (Homo sapiens, UniProt O00238)	cell-free assay, TR-FRET		0.254
CSCC[C@H](NC(=O)[C@H](CCC(N)=O)NC(=O)[C@H](CCCCN)NC(=O)[C@H](CCCCN)NC(=O)[C@H](CO)NC(=O)[C@H](Cc1ccccc1)NC(=O)[C@H](Cc1ccccc1)NC(=O)[C@H](CO)NC(=O)[C@H](CC(C)C)NC(=O)[C@@H](NC(=O)CNC(=O)[C@H](CCCNC(=N)N)NC(=O)[C@H](CO)NC(=O)[C@H](C)NC(=O)[C@@H](N)CS)C(C)C)C(=O)N[C@@H](CCC(N)=O)C(=O)N[C@@H](CC(=O)O)C(=O)O	DNA repair protein REV1 (Homo sapiens, UniProt Q9UBZ9)	binding, SPR	pH 7.5	~13
CC(C)C[C@@H](N)C(=O)N[C@H](CC(=O)O)C(=O)N[C@@H](C(=O)N[C@H](Cc1ccccc1)C(=O)N[C@H](CC(C)C)C(=O)N[C@H](Cc1ccc(O)cc1)C(=O)N[C@H](CO)C(=O)N[C@H](CCC(=O)O)C(=O)O)C(C)C	Cd274 (Mus musculus, UniProt Q9EP73)	binding, MST		22.9
CC(C)C[C@@H]1NC(=O)[C@H](C(C)C)NC(=O)[C@H](CCCNC(=N)N)NC(=O)[C@@H](N)CSSC[C@@H](C(=O)O)NC(=O)[C@H](CO)NC(=O)CNC(=O)[C@H](CO)NC(=O)[C@H](CCCNC(=N)N)NC1=O	Retinoic acid receptor RXR-beta (Homo sapiens, UniProt P28702)	binding, SPR		> 1000
C#CCN(CC(=O)N(CCOC)CC(=O)N(CCOC)CC(N)=O)C(=O)CN(CCOC)C(=O)CN(CCN1CCOCC1)C(=O)CN(Cc1ccc2c(c1)OCO2)C(=O)CN(CC=C)C(=O)[C@H](C)NCc1ccc(OC)cc1	MMP14 (Homo sapiens, UniProt P50281)	binding, FP		2.7
CCc1cc2c3c(c1CC)O[C@H](CO)[C@H](O)[C@@H]3OC2	LGALS9	cell-free assay, FP		~5000
CC(=O)NCCCC[C@H](NC(=O)CNC(=O)CNC(=O)[C@H](C)NC(=O)[C@@H](N)Cc1ccc(O)cc1)C(=O)N[C@@H](C)C(=O)NCC(=O)N[C@@H](CCCCN)C(=O)N[C@@H](CC(=O)O)C(=O)N[C@@H](CO)C(=O)NCC(=O)N[C@@H](CCCCN)C(=O)N[C@@H](C)C(=O)N[C@@H](CCCCN)C(=O)N[C@@H](C)C(=O)N[C@@H](CCCCNC(C)=O)C(=O)N[C@@H](C)C(=O)N[C@H](C(=O)N[C@@H](CO)C(=O)N[C@@H](CCCNC(=N)N)C(N)=O)C(C)C	BPTF bromodomain	protein-observed fluorine NMR		430
CC[C@H](C)[C@H](NC(=O)[C@@H]1CCCN1C(=O)[C@@H](NC(=O)[C@H](C)N)C(C)C)C(=O)N[C@@H](C)C(=O)N[C@@H](CCC(N)=O)C(=O)N[C@@H](CCCCN)C(=O)N[C@@H](CO)C(=O)N[C@@H](CCC(=O)O)C(=O)N1CCC[C@H]1C(=O)N[C@@H](Cc1c[nH]cn1)C(=O)N[C@@H](CO)C(=O)N[C@@H](CC(C)C)C(=O)N[C@@H](CO)C(=O)N[C@@H](CO)C(=O)O	BIRC5 (Homo sapiens, UniProt O15392, H80W/K62Y)	ITC	pH 7.5, 25 °C, K62Y/H80W double mutant	19.8 ± 2.3
CC(=O)N[C@@H]1[C@@H](O[C@@H]2O[C@H](C(=O)O)[C@@H](O[C@@H]3O[C@H](COS(=O)(=O)O)[C@@H](OS(=O)(=O)O)[C@H](O[C@@H]4O[C@H](C(=O)O)[C@@H](O[C@@H]5O[C@H](COS(=O)(=O)O)[C@@H](OS(=O)(=O)O)[C@H](O[C@@H]6O[C@H](C(=O)O)[C@@H](OS(=O)(=O)O)[C@H](OS(=O)(=O)O)[C@H]6OS(=O)(=O)O)[C@H]5NC(C)=O)[C@H](OS(=O)(=O)O)[C@H]4OS(=O)(=O)O)[C@H]3NC(C)=O)[C@H](OS(=O)(=O)O)[C@H]2OS(=O)(=O)O)[C@H](OS(=O)(=O)O)[C@@H](COS(=O)(=O)O)O[C@H]1N=[N+]=[N-]	FGF1 (Homo sapiens, UniProt P05230)	ligand displacement, FP		0.003
O=C(Cc1cccc(C(F)(F)F)c1)Nc1cc(Oc2c(F)cc3nc(NC(=O)C4CC4)sc3c2F)ccc1F	RIPK3	binding, competition with immobilised ligand		> 5
OC[C@H]1Oc2c(Cc3ccccc3)c(Cc3ccccc3)cc3c2[C@@H](OC3)[C@H]1O	Galectin-1 (LGALS1, Homo sapiens, UniProt P09382)	ligand displacement, FP		310
CC[C@H](C)[C@H](NC(=O)[C@H](CCCCN)NC(=O)[C@H](C)NC(=O)[C@@H](NC(=O)[C@H](CCC(=O)O)NC(=O)[C@H](CCC(=O)O)NC(=O)[C@H](CCC(=O)O)NC(=O)[C@H](CO)NC(=O)[C@H](CC(C)C)NC(=O)[C@H](CC(=O)O)NC(=O)[C@H](CC(C)C)NC(=O)CNC(=O)[C@H](CCCNC(=N)N)NC(=O)[C@H](CC(C)C)NC(=O)[C@H](CO)NC(=O)CNC(=O)CNC(=O)CNC(=O)CCCC[C@@H]1SC[C@@H]2NC(=O)N[C@@H]21)C(C)C)C(=O)N[C@@H](CC(C)C)C(=O)N[C@@H](CC(=O)O)C(=O)N[C@@H](CCC(=O)O)C(=O)N[C@H](C(=O)N[C@H](C(=O)N[C@@H](CCCCN)C(=O)N[C@@H](CC(=O)O)C(=O)O)C(C)C)[C@@H](C)CC	Fab B11 antibody (human)	binding, biolayer interferometry	together with: biotinylated peptide on tips	0.25 ± 0.008
OC[C@H]1Oc2cc(I)cc3c2[C@@H](OC3)[C@H]1O	LGALS9	cell-free assay, FP		> 2000
O=C(Cc1cccc(C(F)(F)F)c1)Nc1cc(Oc2ccc3nc(NC(=O)C4CC4)sc3c2CO)ccc1F	RIPK3	binding, competition with immobilised ligand		0.16
CCN(CC)C1CCN(Cc2cc(C#CCN)cc(I)c2O)CC1	TP53 (Homo sapiens, UniProt P04637, M133L/N239Y/N268D/V203A/Y220C)		20 °C, protein 75 µM	1080 ± 360

A few entries again:
SMILES	target	test	setting	Kd [µM]
CC[C@H](C)[C@H](NC(=O)[C@H](C)NC(=O)[C@H](CC(=O)O)NC(=O)[C@H](CC(C)C)NC(=O)[C@@H](NC(=O)[C@H](CCCCN)NC(=O)[C@H](CCCCN)NC(=O)[C@@H](NC(=O)[C@H](CCC(=O)O)NC(=O)[C@H](CCC(=O)O)NC(=O)[C@H](CCC(=O)O)NC(=O)[C@H](CO)NC(=O)[C@H](CC(C)C)NC(=O)[C@H](CC(=O)O)NC(=O)[C@H](CC(C)C)NC(=O)CNC(=O)[C@H](CCCNC(=N)N)NC(=O)[C@H](CC(C)C)NC(=O)[C@H](CO)NC(=O)CNC(=O)CNC(=O)CNC(=O)CCCC[C@@H]1SC[C@@H]2NC(=O)N[C@@H]21)C(C)C)[C@@H](C)CC)C(=O)N[C@H](C(=O)N[C@@H](CCCCN)C(=O)N[C@@H](CC(=O)O)C(=O)O)C(C)C	Fab B11 antibody (human)	binding, biolayer interferometry	together with: biotinylated peptide on tips	0.027 ± 0.001
Nc1ccc(/C=C/C(=O)NCC2Cc3cc(-c4ccc(C(=O)N5CCNCC5)cc4)cc(Cl)c3O2)cn1 (stereo not shown)	PAK4 (Homo sapiens, UniProt O96013)	binding, SPR		9.65
